Results collected from several papers.
Each line is one published result; not all experiments were run side by side. “And” joins repeats or separate records; there may be more than shown. ± marks the error that the study gave.

| SMILES | test | test system | setting | scale | quantity | result |
| --- | --- | --- | --- | --- | --- | --- |
| CSCC[C@H](NC(=O)CNC(=O)[C@H](CCCCN)NC(=O)[C@H](CC(C)C)NC(=O)[C@@H]1CCCN1C(=O)[C@H](CO)NC(=O)[C@H](Cc1c[nH]cn1)NC(=O)[C@H](Cc1c[nH]c2ccccc12)NC(=O)[C@H](CCCNC(=N)N)NC(=O)[C@H](CC(C)C)NC(=O)[C@H](CCCNC(=N)N)NC(=O)[C@H](Cc1c[nH]c2ccccc12)NC(=O)[C@H](CS)NC(=O)CCCCCNC(=O)CN1CCN(CC(=O)O)CCN(CC(=O)O)CCN(CC(=O)O)CC1)C(=O)O [copper-64 labelled] | – | C57BL/6J mice, B16-F10 tumour | intravenous, 1.85 MBq, 30 h | reference: tumour over muscle | tumour-to-muscle ratio | 7.02 |
| CN1Cc2cc(Cl)ccc2-n2c(nnc2C2CCN(c3cccc([18F])n3)CC2)C1 | – | C57BL/6 mouse male, thymus | intravenous, 3.7 MBq, 5 min | – | tissue uptake | 3.76 ± 0.54 %ID/g |
| C#Cc1c(F)ccc2cc(O)cc(-c3ncc4c(N5CC6CCC(C5)N6C(=O)OC(C)OC(=O)CC5CCOCC5)nc(OC[C@@]56CCCN5C[C@H](F)C6)nc4c3F)c12 (stereo partly drawn) | chemical stability | simulated intestinal fluid | 1 µM, 30 min | – | compound remaining | 99.6% |
| O=C1NC2(CC2)COc2ncc(F)cc2[C@H]2COCCN2c2ccn3ncc1c3n2 | – | Sprague-Dawley rat, male, serum | oral, 10 mg/kg/day, 4 weeks daily, end of treatment | – | alkaline phosphatase activity | 139 ± 22.4 U/L |
| CCCCCCCCCCCCCCCC(=O)OCC(CSC[C@H](N)C(=O)N[C@@H](CO)C(=O)N[C@@H](CCCCN)C(=O)N[C@@H](CCCCN)C(=O)N[C@@H](CCCCN)C(=O)N[C@@H](CCCCN)C(=O)NCCCCCC(=O)N[C@@H](CCCCN)C(=O)N[C@@H](CC(C)C)C(=O)N[C@H](C(=O)N[C@@H](Cc1ccccc1)C(=O)N[C@@H](Cc1ccccc1)C(=O)N[C@@H](Cc1ccc2ccccc2c1)C(=O)O)C(C)C)OC(=O)CCCCCCCCCCCCCCC (stereo partly drawn) | – | C57BL/6J mouse, serum | intraperitoneal, dose not given | – | serum creatinine | 49.2 µmol/L and 49.6 µmol/L and 49.7 µmol/L and 42.9 µmol/L and 38.3 µmol/L |
| CN1CCCCC1C(=O)NC(Cc1ccc(-c2ccccc2)cc1)B(O)O (stereo not drawn) | – | male Sprague-Dawley rats | oral, 1 mg/kg | – | oral bioavailability | 58% |
| CC(=O)NCCCC[C@@H]1NC(=O)[C@H](Cc2c[nH]c3c(C)cccc23)NC(=O)[C@H]([C@@H](C)O)NC(=O)[C@H](CC(N)=O)NC(=O)[C@@H](NC(C)=O)C(C)(C)SSC(C)(C)[C@@H](C(=O)N[C@@H](Cc2ccc(OCCN)cc2)C(=O)N[C@@H](Cc2ccc3ccccc3c2)C(=O)NC2(C(=O)N[C@@H](CCC(=O)O)C(=O)N[C@@H](CC(N)=O)C(=O)N[C@@H](Cc3cccnc3)C(=O)N(C)CC(N)=O)CCOCC2)NC1=O | – | cynomolgus monkey, rectum | intravenous, 1 mg/kg | – | tissue to plasma ratio | 80% |
| CC[C@H](C)[C@H](NC(=O)[C@H](CCCCN)NC(=O)CNC(=O)[C@H](CC(C)C)NC(=O)[C@H](Cc1ccccc1)NC(=O)[C@H](CCCCN)NC(=O)[C@H](CO)NC(=O)[C@H](Cc1ccccc1)NC(=O)[C@H](Cc1c[nH]c2ccccc12)NC(=O)[C@H](CCC(N)=O)NC(=O)[C@@H](NC(=O)[C@H](Cc1ccccc1)NC(=O)CCCCCNC(=O)CN1CCN(CC(=O)O)CCN(CC(=O)O)CCN(CC(=O)O)CC1)C(C)C)C(=O)N[C@@H](CCC(=O)O)C(=O)N1CCC[C@H]1C(=O)N[C@@H](CC(=O)O)C(=O)N[C@H](C(=O)N[C@@H](CO)C(=O)N[C@@H](CCC(N)=O)C(=O)N[C@H](C(=O)N[C@@H](CCC(N)=O)C(=O)N[C@@H](CC(=O)O)C(=O)N1CCC[C@H]1C(=O)N[C@@H](CC(N)=O)C(=O)N[C@@H](CC(=O)O)C(=O)N[C@@H](CCC(N)=O)C(=O)N[C@@H](Cc1ccc(O)cc1)C(=O)N[C@@H](CCC(=O)O)C(=O)N1CCC[C@H]1C(=O)N[C@@H](Cc1ccccc1)C(=O)O)C(C)C)C(C)C [copper-64 labelled] | – | GZMB-/- mice, CT26 tumour-bearing, blood | 2 h, vehicle-treated | – | tissue uptake | 0.84 ± 0.1 %ID/g |
| N=C(N)NCCC[C@@H](NC(=O)[C@H](N)Cc1c[nH]c2ccccc12)C(=O)N[C@H](CCCCN)C(=O)N[C@H](Cc1c[nH]c2ccccc12)C(=O)N[C@H](CCCNC(=N)N)C(=O)N[C@H](CCCCN)C(=O)N[C@H](Cc1c[nH]c2ccccc12)C(=O)N[C@H](CCCNC(=N)N)C(=O)N[C@H](CCCCN)C(=O)N[C@H](Cc1c[nH]c2ccccc12)C(=O)N[C@H](CCCNC(=N)N)C(=O)N[C@H](CCCCN)C(N)=O | – | mouse, spleen | intravenous, 20 mg/kg single dose, 7 days | – | organ index | 0.534 |
| NC1CCN(C(=O)Oc2ccc(C3CCCC4(C3)OOC3(O4)C4CC5CC(C4)CC3C5)cc2)CC1 (racemic) | – | male ICR mice, plasma | oral, 50 mg/kg | – | Tmax | 2.17 h |
| Cc1ccc(OCC(=O)N(Cc2cccs2)c2ccn[nH]2)cc1 | in vivo micronucleus | Crl:CD-1(ICR) mice, male, bone marrow polychromatic erythrocytes | oral, 1500 mg/kg/day, 3 days | – | micronucleated PCEs | 0.04 ± 0.02% |
| N#[11C]c1ccc(-c2csc(NN=C3CCCC3)n2)cc1 | – | C57BL/6 mice, male, liver | intravenous, 3 MBq, 30 min | – | radioactivity uptake | 9.24 ± 1.2 %ID/g |

Repeated from above:
| SMILES | test | test system | setting | scale | quantity | result |
| --- | --- | --- | --- | --- | --- | --- |
| O=C1NC2(CC2)COc2ncc(F)cc2[C@H]2COCCN2c2ccn3ncc1c3n2 | – | Sprague-Dawley rat, male, serum | oral, 10 mg/kg/day, 4 weeks daily, end of treatment | – | alkaline phosphatase activity | 139 ± 22.4 U/L |
